Results from different studies.
Protocols differ between the studies behind these lines. Several values in a cell are separate wells, animals, samples, runs or records.
Target: Mitogen-activated protein kinase kinase kinase 8 (MAP3K8, Homo sapiens, UniProt P41279)

Nc1ncc(-c2cc(-c3cnn(CC(F)(F)F)c3)ncc2F)nc1C(=O)NC1CNCC(F)C1 (centres unmarked) — remaining activity (enzyme activity; 1 µM; baseline: DMSO control): 97.3%
CCn1cc(C(=O)O)c(=O)c2c(N)c(F)c(NC3CCCCC3)cc21 — inhibition (kinase activity; 0.1 µM, added: ATP at Km): 0.1%
NC(=O)[C@@H](O)C[C@H]1CCc2sc3ncnc(O[C@H]4CC[C@H](N5CCOCC5)CC4)c3c21 — inhibition (enzyme activity, inhibitor; 10 µM): -4%
COCC12C(=O)NC3C4(C(OC)CC1O)C1CC5(O)C(OC)C(O)C(OC(C)=O)(C1C5OC(=O)c1ccccc1)C3(O)C(OC)C24 (centres unmarked) — remaining activity (kinase activity, inhibitor, ProQinase kinase profiling; 25 µM; baseline: control): 88% and 82%
CN1CCN(Cc2ccc(-c3ccc(CO[C@H]4CCC[C@@H]4NC(=O)c4cc(-c5cnn(C)c5)cnc4N)cc3)cc2)CC1 — inhibition (enzyme activity, inhibitor; 0.1 µM): -3%
O=C(Cc1ccc(OCc2ccccc2)cc1)NC1(C(=O)O)CCN(C(=O)c2ccc(-c3cccc(Cl)c3)cc2)CC1 — activity vs control (enzyme activity, inhibitor; 10 µM): 100%
C=CC(=O)N1Cc2nc(-c3cc(-c4cc(Cl)cnc4Cl)c(F)cc3F)n(-c3ccncn3)c2C1 — inhibition (cell-free assay, inhibitor; 1 µM): -5.6%
NC(=O)C[C@H]1CCc2sc3ncnc(O[C@H]4CC[C@H](N5CCOCC5)CC4)c3c21 — inhibition (enzyme activity, inhibitor; 10 µM): 6%

A few entries again:
COCC12C(=O)NC3C4(C(OC)CC1O)C1CC5(O)C(OC)C(O)C(OC(C)=O)(C1C5OC(=O)c1ccccc1)C3(O)C(OC)C24 (centres unmarked) — remaining activity (kinase activity, inhibitor, ProQinase kinase profiling; 25 µM; baseline: control): 88% and 82%
